Measured values gathered from unrelated publications.
Protocols differ between the studies behind these lines.
Sequence of UniProt O75582 (whole entry, looked up): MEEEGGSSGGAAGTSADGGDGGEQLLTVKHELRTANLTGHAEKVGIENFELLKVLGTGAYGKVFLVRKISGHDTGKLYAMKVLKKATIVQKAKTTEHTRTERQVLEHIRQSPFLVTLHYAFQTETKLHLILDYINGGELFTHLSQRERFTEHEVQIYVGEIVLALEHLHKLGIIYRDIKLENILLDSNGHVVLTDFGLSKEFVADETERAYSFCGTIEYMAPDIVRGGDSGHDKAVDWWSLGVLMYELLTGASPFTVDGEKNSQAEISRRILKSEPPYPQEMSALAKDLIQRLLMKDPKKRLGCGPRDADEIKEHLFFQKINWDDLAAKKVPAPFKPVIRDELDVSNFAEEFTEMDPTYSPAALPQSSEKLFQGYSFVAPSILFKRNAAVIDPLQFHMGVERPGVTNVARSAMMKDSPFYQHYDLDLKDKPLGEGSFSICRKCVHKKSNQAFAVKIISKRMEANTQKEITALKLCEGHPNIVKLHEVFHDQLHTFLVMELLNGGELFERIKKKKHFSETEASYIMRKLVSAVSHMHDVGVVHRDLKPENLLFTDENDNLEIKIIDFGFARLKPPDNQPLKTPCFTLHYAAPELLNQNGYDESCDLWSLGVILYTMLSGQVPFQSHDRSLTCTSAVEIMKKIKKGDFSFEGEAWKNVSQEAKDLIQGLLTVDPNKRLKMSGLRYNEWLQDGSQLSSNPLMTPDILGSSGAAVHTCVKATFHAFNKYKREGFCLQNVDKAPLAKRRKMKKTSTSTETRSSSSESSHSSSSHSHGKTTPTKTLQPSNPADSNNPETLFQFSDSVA

Structure (SMILES)	target or system	test	setting	quantity	value
Cc1ccc(Cn2cc(C(=O)N/N=C/c3ccc([N+](=O)[O-])o3)c(=O)c3cc(Cl)c(Cl)cc32)cc1	HEK293	cell growth or viability, resazurin	48 h	CC50	> 20 µM
Fc1cc(F)c(-c2c(Cl)nc(-c3cccs3)nc2N2CCOCC2)c(F)c1	HEK293	cell growth or viability, resazurin	48 h	CC50	22.7 µM
Cc1ccc(S(=O)(=O)NNc2ccc([N+](=O)[O-])cc2[N+](=O)[O-])cc1	HEK293	cell growth or viability, MTT	3.91 µg/mL	viability	93.6%
CCCc1cc(=O)oc2cc(OCc3cc(=O)c(O)co3)ccc12	HEK293	cell growth or viability, CCK-8	108 µM, 24 h	viability	83.9%
Nc1nc(-c2cccs2)nc(Cl)c1-c1c(F)cc(F)cc1F	HEK293	cell growth or viability, resazurin	48 h	CC50	31.6 µM
Nc1ccn([C@@H]2O[C@H](CO)[C@@H](O)C2(F)F)c(=O)n1	HEK293	cell growth or viability, MTT	2.5 µg/mL, 24 h	viability	51.3%
COc1cc(F)c(-c2c(Cl)nc(-c3cccs3)nc2NCC2(C)COC2)c(F)c1	HEK293	cell growth or viability, resazurin	48 h	CC50	~50 µM
O=C(O)c1ccc(-n2nc(-c3ccccc3O)nc2-c2ccccc2O)cc1	HEK293	cell growth or viability, MTT	24 h	CC50	> 200 µM
Cc1ccc(S(=O)(=O)[N](Nc2ccc([N+](=O)[O-])cc2[N+](=O)[O-])[Sn]([Cl])[Cl])cc1	HEK293	cell growth or viability, MTT	125 µg/mL	viability	80.7%
COc1cc2c(cc1O)[C@@H](Cc1ccc(O)cc1)[N+](C)(C)CC2	HEK293	cell growth or viability, MTT		CC50	> 318 µM
CNc1ncc2c(/C=C/C(=O)N3CCC(OC)CC3)nn(Cc3cccc(C(F)(F)F)c3)c2n1	RPS6KA5 (Homo sapiens, UniProt O75582)	enzyme activity, inhibitor, radiometric	1 µM	remaining activity	99%
COc1ccc2c(c1)c(=O)c(C(=O)N/N=C/c1ccc([N+](=O)[O-])s1)cn2Cc1ccccc1	HEK293	cell growth or viability, resazurin	48 h	CC50	> 20 µM
CC(C)[C@@H](C)Nc1nc(-c2cccs2)nc(Cl)c1-c1c(F)cc(N)cc1F	HEK293	cell growth or viability, resazurin	48 h	CC50	34 µM
Cc1cc(NCCc2ccccc2)nc(NC(=N)Nc2ccc(Cl)cc2)n1	HEK293	cell growth or viability, MTT	24 h	CC50	29.6 µM
